Measured values gathered from unrelated publications.
Protocols differ between the studies behind these lines. Several values in a cell are separate wells, animals, samples, runs or records. ± marks the error that the study gave.
Methyl-accepting chemotaxis protein Tlp3 sensing domain: Methyl-accepting chemotaxis protein Tlp3, sensing domain (Campylobacter jejuni, UniProt Q0P864)
Ribonucleoside-diphosphate reductase large subunit: Ribonucleoside-diphosphate reductase large subunit (Homo sapiens, UniProt P23921)
Sequence of UniProt P23921 (whole entry, looked up): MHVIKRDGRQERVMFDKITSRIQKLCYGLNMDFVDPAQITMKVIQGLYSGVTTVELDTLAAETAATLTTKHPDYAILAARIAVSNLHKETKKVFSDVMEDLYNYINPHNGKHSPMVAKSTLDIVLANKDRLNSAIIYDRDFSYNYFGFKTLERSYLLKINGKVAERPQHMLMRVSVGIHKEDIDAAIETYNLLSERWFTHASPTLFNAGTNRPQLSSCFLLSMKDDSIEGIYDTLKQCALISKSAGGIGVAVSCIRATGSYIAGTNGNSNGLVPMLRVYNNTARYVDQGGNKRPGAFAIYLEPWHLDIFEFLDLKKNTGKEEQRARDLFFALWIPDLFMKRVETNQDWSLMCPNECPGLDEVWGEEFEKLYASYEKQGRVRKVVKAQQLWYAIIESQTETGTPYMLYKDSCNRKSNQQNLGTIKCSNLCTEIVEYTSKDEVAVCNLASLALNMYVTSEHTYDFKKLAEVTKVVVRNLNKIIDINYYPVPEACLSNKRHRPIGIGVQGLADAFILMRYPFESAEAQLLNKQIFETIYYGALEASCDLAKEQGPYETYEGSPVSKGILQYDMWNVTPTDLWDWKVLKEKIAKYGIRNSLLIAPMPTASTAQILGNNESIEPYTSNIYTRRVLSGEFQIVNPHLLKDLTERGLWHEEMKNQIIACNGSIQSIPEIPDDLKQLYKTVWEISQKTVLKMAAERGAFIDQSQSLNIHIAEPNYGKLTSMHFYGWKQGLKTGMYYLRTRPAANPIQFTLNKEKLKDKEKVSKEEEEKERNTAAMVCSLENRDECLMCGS
BCL2L1: Bcl-2-like protein 1 (BCL2L1, Homo sapiens, UniProt Q07817)
Sequence of UniProt Q07817 (whole entry, looked up): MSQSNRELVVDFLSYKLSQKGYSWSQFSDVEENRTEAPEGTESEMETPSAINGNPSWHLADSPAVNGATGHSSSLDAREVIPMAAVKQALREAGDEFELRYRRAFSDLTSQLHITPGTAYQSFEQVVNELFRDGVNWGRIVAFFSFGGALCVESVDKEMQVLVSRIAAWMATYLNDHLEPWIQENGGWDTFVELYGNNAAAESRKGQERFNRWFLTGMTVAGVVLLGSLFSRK
Sequence of UniProt Q15782 (whole entry, looked up): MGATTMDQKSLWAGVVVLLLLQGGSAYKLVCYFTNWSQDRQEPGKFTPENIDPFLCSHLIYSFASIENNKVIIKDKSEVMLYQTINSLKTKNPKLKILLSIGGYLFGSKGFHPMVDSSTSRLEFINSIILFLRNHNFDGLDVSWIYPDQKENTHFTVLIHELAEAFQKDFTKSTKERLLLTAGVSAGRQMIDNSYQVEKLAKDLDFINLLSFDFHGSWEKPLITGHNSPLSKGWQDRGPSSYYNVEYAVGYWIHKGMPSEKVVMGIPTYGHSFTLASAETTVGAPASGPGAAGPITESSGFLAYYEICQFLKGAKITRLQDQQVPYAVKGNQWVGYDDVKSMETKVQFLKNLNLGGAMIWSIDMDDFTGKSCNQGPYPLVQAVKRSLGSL
Sequence of UniProt Q9Y5N1 (whole entry, looked up): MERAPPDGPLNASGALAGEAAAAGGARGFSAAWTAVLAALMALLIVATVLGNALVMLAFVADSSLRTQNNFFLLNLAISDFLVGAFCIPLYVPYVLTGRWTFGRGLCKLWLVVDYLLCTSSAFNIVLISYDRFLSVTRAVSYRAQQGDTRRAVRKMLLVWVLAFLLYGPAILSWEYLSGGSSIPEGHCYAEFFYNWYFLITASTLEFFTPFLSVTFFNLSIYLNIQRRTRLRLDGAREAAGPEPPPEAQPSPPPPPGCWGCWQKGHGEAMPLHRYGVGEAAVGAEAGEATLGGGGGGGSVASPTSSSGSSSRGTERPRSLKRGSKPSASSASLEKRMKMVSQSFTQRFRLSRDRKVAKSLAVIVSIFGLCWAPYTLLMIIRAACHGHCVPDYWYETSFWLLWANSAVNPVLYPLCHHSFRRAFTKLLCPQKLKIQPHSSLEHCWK
Sequence of UniProt Q06385 (whole entry, looked up): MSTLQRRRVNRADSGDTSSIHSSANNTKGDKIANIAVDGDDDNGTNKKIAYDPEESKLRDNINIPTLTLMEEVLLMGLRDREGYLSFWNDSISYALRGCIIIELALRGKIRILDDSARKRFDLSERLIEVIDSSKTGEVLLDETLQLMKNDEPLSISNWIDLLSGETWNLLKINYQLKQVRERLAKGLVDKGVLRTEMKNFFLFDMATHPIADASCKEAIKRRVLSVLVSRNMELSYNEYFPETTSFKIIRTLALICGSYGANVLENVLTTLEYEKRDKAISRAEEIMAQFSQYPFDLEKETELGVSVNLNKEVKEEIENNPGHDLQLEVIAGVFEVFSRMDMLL
Sequence of UniProt P02716 (whole entry, unmodified, looked up): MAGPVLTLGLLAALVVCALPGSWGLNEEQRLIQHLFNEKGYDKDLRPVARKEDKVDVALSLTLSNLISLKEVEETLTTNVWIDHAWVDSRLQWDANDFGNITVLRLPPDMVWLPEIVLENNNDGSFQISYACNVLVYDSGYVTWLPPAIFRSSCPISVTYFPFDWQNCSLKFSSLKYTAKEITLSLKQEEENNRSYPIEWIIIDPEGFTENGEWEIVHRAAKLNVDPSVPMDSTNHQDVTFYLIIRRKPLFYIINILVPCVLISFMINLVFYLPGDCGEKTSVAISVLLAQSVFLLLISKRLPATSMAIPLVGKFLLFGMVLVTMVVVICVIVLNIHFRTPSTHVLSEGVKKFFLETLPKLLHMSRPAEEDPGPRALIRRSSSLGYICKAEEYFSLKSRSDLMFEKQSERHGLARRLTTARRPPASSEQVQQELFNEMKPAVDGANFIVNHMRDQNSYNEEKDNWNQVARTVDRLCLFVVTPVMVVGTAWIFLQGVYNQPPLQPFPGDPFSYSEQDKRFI
Sequence of UniProt Q08460 (whole entry, looked up): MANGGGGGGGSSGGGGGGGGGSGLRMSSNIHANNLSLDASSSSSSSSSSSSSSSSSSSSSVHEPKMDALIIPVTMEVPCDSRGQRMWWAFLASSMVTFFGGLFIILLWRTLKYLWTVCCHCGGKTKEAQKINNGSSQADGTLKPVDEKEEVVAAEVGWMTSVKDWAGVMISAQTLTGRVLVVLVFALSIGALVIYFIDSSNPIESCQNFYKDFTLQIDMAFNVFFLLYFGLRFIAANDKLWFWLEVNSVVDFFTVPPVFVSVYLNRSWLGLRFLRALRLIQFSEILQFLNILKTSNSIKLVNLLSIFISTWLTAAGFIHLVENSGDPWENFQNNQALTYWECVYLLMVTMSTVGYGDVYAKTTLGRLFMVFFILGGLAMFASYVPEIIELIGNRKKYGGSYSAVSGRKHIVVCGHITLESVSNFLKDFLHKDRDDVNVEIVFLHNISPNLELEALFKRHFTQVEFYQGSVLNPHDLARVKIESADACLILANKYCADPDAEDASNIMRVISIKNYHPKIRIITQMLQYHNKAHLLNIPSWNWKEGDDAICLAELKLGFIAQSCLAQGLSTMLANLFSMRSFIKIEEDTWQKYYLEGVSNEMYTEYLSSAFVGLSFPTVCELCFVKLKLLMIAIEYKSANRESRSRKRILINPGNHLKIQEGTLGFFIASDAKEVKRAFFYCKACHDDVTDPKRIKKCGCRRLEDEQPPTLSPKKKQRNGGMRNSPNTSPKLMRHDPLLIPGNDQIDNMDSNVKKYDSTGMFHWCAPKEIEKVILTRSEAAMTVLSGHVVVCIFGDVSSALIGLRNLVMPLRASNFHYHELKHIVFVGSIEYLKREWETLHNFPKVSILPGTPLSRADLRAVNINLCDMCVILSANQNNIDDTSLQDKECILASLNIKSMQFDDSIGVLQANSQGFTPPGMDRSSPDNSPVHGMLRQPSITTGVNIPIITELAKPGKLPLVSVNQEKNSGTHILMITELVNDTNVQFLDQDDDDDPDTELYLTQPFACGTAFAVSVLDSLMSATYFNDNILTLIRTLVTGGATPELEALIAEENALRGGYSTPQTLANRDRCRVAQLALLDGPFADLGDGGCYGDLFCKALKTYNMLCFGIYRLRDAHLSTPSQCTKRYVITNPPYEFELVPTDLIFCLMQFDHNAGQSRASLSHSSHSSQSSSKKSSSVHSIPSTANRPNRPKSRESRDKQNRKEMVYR
Sequence of UniProt P00921 (whole entry, looked up): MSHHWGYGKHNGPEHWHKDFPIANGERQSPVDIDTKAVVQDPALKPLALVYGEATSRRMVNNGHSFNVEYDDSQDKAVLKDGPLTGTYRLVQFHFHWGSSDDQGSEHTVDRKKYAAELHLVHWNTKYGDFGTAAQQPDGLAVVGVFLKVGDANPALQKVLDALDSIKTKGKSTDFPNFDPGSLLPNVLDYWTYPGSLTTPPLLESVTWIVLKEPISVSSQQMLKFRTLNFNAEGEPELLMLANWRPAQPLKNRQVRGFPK
Sequence of UniProt P69905 (whole entry, looked up): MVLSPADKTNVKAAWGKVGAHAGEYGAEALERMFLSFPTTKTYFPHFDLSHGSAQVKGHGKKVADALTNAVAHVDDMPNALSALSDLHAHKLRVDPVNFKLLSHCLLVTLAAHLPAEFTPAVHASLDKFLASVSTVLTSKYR
Sequence of UniProt P0DMV8 (whole entry, looked up): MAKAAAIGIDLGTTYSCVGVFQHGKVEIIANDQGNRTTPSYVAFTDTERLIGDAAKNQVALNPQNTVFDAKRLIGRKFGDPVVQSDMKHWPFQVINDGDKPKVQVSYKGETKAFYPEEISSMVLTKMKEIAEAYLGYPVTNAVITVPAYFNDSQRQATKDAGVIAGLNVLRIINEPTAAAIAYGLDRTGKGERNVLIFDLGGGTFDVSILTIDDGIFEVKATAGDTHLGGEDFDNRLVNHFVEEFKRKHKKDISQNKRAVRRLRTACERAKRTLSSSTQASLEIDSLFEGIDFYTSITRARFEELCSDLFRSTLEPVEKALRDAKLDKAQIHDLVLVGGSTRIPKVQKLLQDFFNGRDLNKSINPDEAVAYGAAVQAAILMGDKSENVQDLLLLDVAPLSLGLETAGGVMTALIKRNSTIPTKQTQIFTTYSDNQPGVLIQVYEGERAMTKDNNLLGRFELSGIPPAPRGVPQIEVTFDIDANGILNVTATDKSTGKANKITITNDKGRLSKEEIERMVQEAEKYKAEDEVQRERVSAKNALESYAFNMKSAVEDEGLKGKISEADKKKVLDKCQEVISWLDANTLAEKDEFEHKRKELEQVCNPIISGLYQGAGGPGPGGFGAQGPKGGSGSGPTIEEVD

Substance | tested on | test | test system | conditions | endpoint | result
CC(=O)N[C@@H](CC(C)C)C(=O)N[C@@H](CCCCN)C(=O)N[C@@H](CCCCN)C(=O)N[C@@H](Cc1c[nH]c2ccccc12)C(=O)N[C@@H](CC(C)C)C(=O)N[C@@H](CCCCN)C(=O)N[C@@H](CC(C)C)C(=O)N[C@@H](CC(C)C)C(=O)N[C@@H](CCCCN)C(=O)N[C@@H](CCCCN)C(=O)N[C@@H](CC(C)C)C(=O)N[C@@H](CC(C)C)C(=O)N[C@@H](CCCCN)C(=O)N[C@@H](CC(C)C)C(=O)N[C@@H](C)C(=O)NCC(N)=O | HIV-1 RRE hairpin RNA | competitive fluorescence anisotropy |  | pH 7.4, 20 °C, with: rhodamine-Rev peptide | Kd | 0.0059 ± 0.0004 µM
CC(C)C[C@H](N)C(=O)O | Methyl-accepting chemotaxis protein Tlp3 sensing domain | binding, thermal shift unfolding equilibrium |  | at To sensing domain | Kd | 949 ± 182 µM
CC(=O)N[C@@H](CC(C)C)C(=O)N[C@@H](CCCCN)C(=O)N[C@@H](CCCCN)C(=O)N[C@@H](CC(C)C)C(=O)N[C@@H](CC(C)C)C(=O)N[C@@H](CCCCN)C(=O)N[C@@H](CC(C)C)C(=O)N[C@@H](CC(C)C)C(=O)N[C@@H](CCCCN)C(=O)N[C@@H](CCCCN)C(=O)N[C@@H](CC(C)C)C(=O)N[C@@H](Cc1c[nH]c2ccccc12)C(=O)N[C@@H](CCCCN)C(=O)N[C@@H](CC(C)C)C(=O)N[C@@H](C)C(=O)NCC(N)=O | HIV-1 RRE hairpin RNA | competitive fluorescence anisotropy |  | pH 7.4, 20 °C, with: rhodamine-Rev peptide | Kd | 0.013 ± 0.001 µM
CC(C)(C)c1nn(-c2cc(OCc3cn(Cc4ccc(Cl)cc4)nn3)c(Cl)cc2Cl)c(=O)o1 | Toxoplasma gondii | intracellular parasite growth, luminescence | HFF, wild type, NanoLuc reporter | 96 h | IC50 | 2.1 µM and < 2.5 µM
CC1(C)S[C@@H]2[C@H](NC(=O)[C@H](N)c3ccc(O)cc3)C(=O)N2[C@H]1C(=O)O | other Haemophilus species |  | community-acquired pneumonia patients | Fine score below 70 | sensitive strains | 88.5%
CC[n+]1c(-c2ccccc2)c2cc(N)ccc2c2ccc(N)cc21 | HIV-1 nucleocapsid-SL3 RNA complex | binding, ESI-FTMS |  | pH 7.5 | Kd | 6.4 ± 0.9 µM
Thymosin beta-4 | actin, rabbit skeletal muscle | pyrenyl actin elongation |  |  | Kd | 2 to 3 µM
O=S(=O)(O)c1ccc2c(ccc3nn(-c4ccc(/C=C/c5ccc(-n6nc7ccc8cc(S(=O)(=O)O)ccc8c7n6)cc5S(=O)(=O)O)c(S(=O)(=O)O)c4)nc32)c1 | UBC (Homo sapiens, UniProt P0CG48) | binding, NMR titration |  |  | Kd | 11.4 ± 2.2 µM
CC(C)[C@H](N)C(=O)O | Methyl-accepting chemotaxis protein Tlp3 sensing domain | binding, thermal shift |  | unfolding equilibrium constant at To | Kd | 2290 ± 534 µM
Oc1coccc1=S | Carbonic anhydrase 2, Co(II)-substituted (CA2, Bos taurus, UniProt P00921) | binding, UV-vis titration |  | pH 7.5, deprotonated form | Kd | 320 µM
CN1/C(=C/C=C/c2cc[n+](CCCS(=O)(=O)[O-])c3ccccc23)C(C)(C)c2ccccc21 | scFv K7, soluble | fluorescence titration |  |  | Kd | 0.0103 ± 0.0007 µM
CC(=O)N[C@@H](CC(C)C)C(=O)N[C@@H](CCCCN)C(=O)N[C@@H](CCCCN)C(=O)N[C@@H](CC(C)C)C(=O)N[C@@H](CC(C)C)C(=O)N[C@@H](CCCCN)C(=O)N[C@@H](CC(C)C)C(=O)N[C@@H](CC(C)C)C(=O)N[C@@H](CCCCN)C(=O)N[C@@H](CCCCN)C(=O)N[C@@H](Cc1c[nH]c2ccccc12)C(=O)N[C@@H](CC(C)C)C(=O)N[C@@H](CCCCN)C(=O)N[C@@H](CC(C)C)C(=O)N[C@@H](C)C(=O)NCC(N)=O | HIV-1 RRE hairpin RNA | competitive fluorescence anisotropy |  | pH 7.4, 20 °C, with: rhodamine-Rev peptide | Kd | 0.0095 ± 0.001 µM
O=C(NNC(=O)c1ccccc1O)c1cccnc1 | Ribonucleoside-diphosphate reductase large subunit | binding, fluorescence |  |  | Kd | 2.9 µM
CC(=O)[C@H]1CC[C@H]2[C@@H]3CCC4=CC(=O)CC[C@]4(C)[C@H]3CC[C@]12C | Cytochrome P450 3A4 (CYP3A4, Homo sapiens, UniProt P08684, S18F) |  | POPC Nanodiscs | pH 7.4, 37 °C, second binding step | Kd | 14 µM
C[N+](C)(C)CCO | Chrnd/Chrna1/Chrne (Mus musculus, UniProt P02716+P04756+P20782, D117H) | binding |  |  | Kd | 2100 ± 300 µM
CC(C)(C)c1nn(-c2cc(OCc3cn(Cc4ccccc4Br)nn3)c(Cl)cc2Cl)c(=O)o1 | Toxoplasma gondii | intracellular parasite growth, luminescence | HFF, wild type, NanoLuc reporter | 96 h | IC50 | 9.2 ± 1.2 µM
Cn1cnc2c1c(=O)n(CCCn1c(=O)c3[nH]cnc3n(C)c1=O)c(=O)n2C | Chitinase-3-like protein 2 (CHI3L2, Homo sapiens, UniProt Q15782) | tryptophan fluorescence |  | pH 7.5 | Kd | 100 ± 7 µM
FGAQLGRVASDF | BCL2L1 | yeast display titration | peptide | 2 h, pH 8.0, room temperature | Kd | 0.009 ± 0.002 µM
O=C(N/N=C/c1cc(-c2ccsc2)ccc1O)c1ccccc1O | Ribonucleoside-diphosphate reductase large subunit | binding, fluorescence |  |  | Kd | 5.3 µM

Substance | tested on | test | test system | conditions | endpoint | result
O=[N+]([O-])c1ccc2c(ccn2[C@H]2C[C@H](O)[C@@H](COP(=O)(O)OP(=O)(O)OP(=O)(O)O)O2)c1 | Ribonucleoside-diphosphate reductase large subunit | binding, isothermal titration calorimetry |  | 25 °C, stronger site (allosteric S-site) | Kd | 44 µM
c1ccc2nc3ccccc3cc2c1 | HIV-1 nucleocapsid-SL4 RNA complex | binding, ESI-FTMS |  | pH 7.5 | Kd | 46.1 ± 3.4 µM
CCCCCCCCCCCCCCCC(=O)OC[C@H](COP(=O)(O)OC1[C@H](O)[C@H](OP(=O)(O)O)C(OP(=O)(O)O)[C@H](OP(=O)(O)O)[C@H]1O)OC(=O)CCCCCCCCCCCCCCC (some centres unmarked) | 3-phosphoinositide-dependent protein kinase 1, PH domain (PDPK1, Homo sapiens, UniProt O15530) | lipid binding, FRET competition | plasma membrane-like bilayers |  | Kd | 0.0002 ± 0.0001 µM
Nc1ncnc2c1ncn2[C@@H]1O[C@H](COP(=O)(O)OP(=O)(O)OP(=O)(O)O)[C@@H](O)[C@H]1O | eIF-2-alpha kinase GCN2 (EIF2AK4, Homo sapiens, UniProt Q9P2K8) |  |  |  | Kd | 92 µM
Cc1nc(N)sc1CCCNC(=N)NCCCCCCCCNC(=N)NCCCc1sc(N)nc1C | Histamine H3 receptor (HRH3, Homo sapiens, UniProt Q9Y5N1) | GTPγS binding, antagonist |  | cell membranes | Kb | 29.5 µM
CCCCCCCCCCCCCCCC(=O)OC[C@H](COP(=O)(O)OC1[C@H](O)[C@H](O)C(OP(=O)(O)O)[C@H](O)[C@H]1O)OC(=O)CCCCCCCCCCCCCCC (some centres unmarked) | Vacuolar protein sorting-associated protein 74 (VPS74, Saccharomyces cerevisiae, UniProt Q06385) | surface plasmon resonance | DOPC vesicles 3 mol% lipid | pH 7.5, 25 °C | Kd | 8.9 ± 0.3 µM
O=Cc1c(O)cccc1OCc1cccc(CO)n1 | Hemoglobin subunit alpha, with beta chain (HBA1, Homo sapiens, UniProt P69905) | binding, cation-exchange HPLC-UV/Vis |  | kinetic Kd from koff/kon | Kd | 100 µM
CN(C)Cc1cc(OCCC[18F])ccc1Sc1ccccc1N | SERT |  | male Sprague Dawley rat, control, striatum | intravenous, 60 min | tissue uptake | 0.53 ± 0.09 %ID/g
VAQELRRIGDEV | BCL2L1 | yeast display titration | peptide | 2 h, pH 8.0, room temperature | Kd | 0.0033 ± 0.0006 µM
Nc1ncnc2c1ncn2[C@@H]1O[C@H](COP(=O)(O)OP(=O)(O)O)[C@@H](O)[C@H]1O | kinase | binding, surface plasmon resonance |  | 25 °C, 10 mM MgCl2 | Kd | 43 ± 6 µM
Nc1ncnc2c1ncn2[C@@H]1O[C@H](COP(=O)(O)OP(=O)(O)NP(=O)(O)O)[C@@H](O)[C@H]1O | Heat shock 70 kDa protein 1A, non-phosphorylated (HSPA1A, Homo sapiens, UniProt P0DMV8) | binding, isothermal titration calorimetry |  | pH 7.5, Mg2+ free | Kd | 9 µM
CC[C@H]1OC(=O)[C@H](C)[C@@H](O[C@H]2C[C@@](C)(OC)[C@@H](O)[C@H](C)O2)[C@H](C)[C@@H](O[C@@H]2O[C@H](C)C[C@H](N(C)C)[C@H]2O)[C@](C)(O)C[C@@H](C)CN(C)[C@H](C)[C@@H](O)[C@]1(C)O | all pathogens |  | community-acquired pneumonia patients | Fine score below 70 | sensitive strains | 73.6%
GGTFXGYWADLXAF (side-chain stapled) | E3 ubiquitin-protein ligase Mdm2 (MDM2, Homo sapiens, UniProt Q00987) | binding, bacterial surface display flow cytometry | peptide, Escherichia coli cell surface | 3 h, on ice, non-stabilized diazido peptide | Kd | 0.0029 ± 0.001 µM
OCc1ccc(-c2nn(Cc3ccccc3)c3ccccc23)o1 | soluble guanylate cyclase beta subunit, N-terminal fragment (Manduca sexta, UniProt O77106) | binding, CO titration, global fit |  | 0.1 µM protein, 10 cm cuvette | Kd | 9.3 ± 0.8 µM
Nc1ccn([C@H]2C[C@H](O)[C@@H](COP(=O)(O)NP(=O)(O)OP(=O)(O)O)O2)c(=O)n1 | DNA polymerase beta, with single-nucleotide gapped DNA (POLB, Homo sapiens, UniProt P06746) | NMR lineshape analysis |  | 23 °C, binary polymerase-DNA complex with MgCl2 | Kd | 3.8 µM
COc1ccc(-c2ccccc2)c(/C=N/NC(=O)c2ccccc2O)c1O | Ribonucleoside-diphosphate reductase large subunit | binding, fluorescence |  | pH 8 | Kd | 35.4 µM
CC[N+](CC)(CC)CC | Kcnma1 (Mus musculus, UniProt Q08460) | channel current, open channel blocker, inside-out patch clamp | cytosolic side | pH 8.5, with: 300 µM Ca2+ | Kb | 49000 ± 3200 µM
CCC[C@H](N)C(=O)O | Methyl-accepting chemotaxis protein Tlp3 sensing domain | binding, thermal shift zero heat capacity |  | at Tm sensing domain | Kd | 1420 ± 470 µM
O=C(N/N=C/c1c(O)ccc2ccccc12)c1ccc(-n2ccccc2=O)cc1 | Ribonucleoside-diphosphate reductase large subunit | binding, fluorescence |  |  | Kd | 9.7 µM

Excerpt of the above:
Substance | tested on | test | test system | conditions | endpoint | result
Nc1ccn([C@H]2C[C@H](O)[C@@H](COP(=O)(O)NP(=O)(O)OP(=O)(O)O)O2)c(=O)n1 | DNA polymerase beta, with single-nucleotide gapped DNA (POLB, Homo sapiens, UniProt P06746) | NMR lineshape analysis |  | 23 °C, binary polymerase-DNA complex with MgCl2 | Kd | 3.8 µM
OCc1ccc(-c2nn(Cc3ccccc3)c3ccccc23)o1 | soluble guanylate cyclase beta subunit, N-terminal fragment (Manduca sexta, UniProt O77106) | binding, CO titration, global fit |  | 0.1 µM protein, 10 cm cuvette | Kd | 9.3 ± 0.8 µM
CC(C)(C)c1nn(-c2cc(OCc3cn(Cc4ccccc4Br)nn3)c(Cl)cc2Cl)c(=O)o1 | Toxoplasma gondii | intracellular parasite growth, luminescence | HFF, wild type, NanoLuc reporter | 96 h | IC50 | 9.2 ± 1.2 µM
